Measured values collected from several papers.
Protocols differ between the studies behind these lines. ± gives the spread as reported.

Compound | test | system | conditions | AUC
COc1c(O)cccc1-c1n[nH]c(SCc2ccccn2)n1 |  | Sprague-Dawley rat, male and female, plasma | oral, 100 mg/kg of parent drug | 148 ng·h/mL
N[C@H](COc1ccccc1C(F)(F)F)c1ccccc1 |  | male Sprague-Dawley rat | oral, 25 mg/kg | 1010 ± 227 ng·h/mL
COc1cccc(-c2n[nH]c(SCc3ccccn3)n2)c1O |  | Sprague-Dawley rat, male and female, plasma | oral, 100 mg/kg of parent drug | 184 ng·h/mL
O=C(O)/C=C/c1ccc(NC(=O)C2(NC(=O)c3ccc4c(C5CCCCC5)c5n(c4c3)CCCc3ccccc3-5)CCCC2)cc1 |  | rat | dose not given | 0.3 µM·h
Cc1ncc2c(n1)CN(C(=O)Nc1nc(-c3cccs3)ccc1N)C2 |  | Sprague-Dawley rat, male | oral, 60 mg/kg daily, day 14, 14-day toxicity study | 28700 ± 7570 ng·h/mL
CC(=O)c1cnc(N)nc1N1CC[C@H]1c1nn2ccc(Cl)c2c(=O)n1-c1ccccc1 |  | female Wistar rat collagen-induced arthritis, plasma | oral, 0.6 mg/kg once daily | 1960 ± 122 ng·h/mL
CCC(CC)[C@H](NC(C)=O)[C@@H]1[C@H](O)[C@@H](C(=O)N[C@H](C(=O)O)[C@@H](C)CC)C[C@H]1NC(=N)N | refers to: intact compound | rat, Sprague-Dawley, male, plasma | oral, 160 mg/kg as peramivir | 20000 ng·h/mL
O=C(O)/C=C/c1ccc(NC(=O)C2(NC(=O)c3ccc4c(C5CCCCC5)c5n(c4c3)CCOc3ccccc3-5)CCCC2)cc1 |  | rat | dose not given | 0.8 µM·h
CC(C)C[C@H](NC(=O)[C@H](CCCCN)NC(=O)CNC(=O)[C@H](CC(C)C)NC(=O)[C@@H](NC(=O)[C@@H]1CSSC[C@H](N)C(=O)N[C@@H](CO)C(=O)N[C@@H](CC(N)=O)C(=O)N[C@@H](CC(C)C)C(=O)N[C@@H](CO)C(=O)N[C@@H]([C@@H](C)O)C(=O)N1)C(C)C)C(=O)N[C@@H](CO)C(=O)N[C@@H](CCC(N)=O)C(=O)N[C@@H](CCC(=O)O)C(=O)N[C@@H](CC(C)C)C(=O)N[C@@H](Cc1c[nH]cn1)C(=O)N[C@@H](CCCCN)C(=O)N[C@@H](CC(C)C)C(=O)N[C@@H](CCC(N)=O)C(=O)N[C@H](C(=O)N[C@@H](Cc1ccc(O)cc1)C(=O)N1CCC[C@H]1C(=O)N[C@@H](CCCNC(=N)N)C(=O)N[C@H](C(=O)N[C@@H](CC(N)=O)C(=O)N[C@H](C(=O)NCC(=O)N[C@@H](CO)C(=O)NCC(=O)N[C@H](C(=O)N1CCC[C@H]1C(N)=O)[C@@H](C)O)[C@@H](C)O)[C@@H](C)O)[C@@H](C)O | ELISA | hairless Sprague-Dawley rat, male, serum | intranasal, 3 µg | 0.307 ± 0.242 ng·h/mL

Some of these lines once more:
Compound | test | system | conditions | AUC
COc1c(O)cccc1-c1n[nH]c(SCc2ccccn2)n1 |  | Sprague-Dawley rat, male and female, plasma | oral, 100 mg/kg of parent drug | 148 ng·h/mL
